Published values gathered from unrelated publications.
“And” joins repeats or separate records; there may be more than shown. ± gives the spread as reported.
KCNT1: Potassium channel subfamily T member 1 (KCNT1, Homo sapiens, UniProt Q5JUK3)
YAP1 WW1 domain: Transcriptional coactivator YAP1, WW1 domain (YAP1, Homo sapiens, UniProt P46937)
CFTR del508-508: Cystic fibrosis transmembrane conductance regulator (CFTR, Homo sapiens, UniProt P13569, del508-508)
YAP1 WW2 domain: Transcriptional coactivator YAP1, WW2 domain (YAP1, Homo sapiens, UniProt P46937)
T1: miR-21 precursor (Homo sapiens); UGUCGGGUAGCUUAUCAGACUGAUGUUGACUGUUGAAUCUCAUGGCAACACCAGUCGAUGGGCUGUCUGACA

| Substance | target | assay | test system | setting | scale | quantity | result |
| --- | --- | --- | --- | --- | --- | --- | --- |
| CCOc1ccccc1S(=O)(=O)N1CC(c2nc(-c3ccc(C)cc3)no2)C1 | KCNT1 | Tl+ flux, inhibitor | HEK293 expressing KCNT1 | 30 µM | – | activity class | inactive |
| CC1CNCCN1S(=O)(=O)c1cccc2cnccc12.Cl.Cl (stereo not shown) | integrin alphaM beta2 (human) | ligand binding, inhibitor, flow cytometry | human neutrophils | concentration not given, 1 h, 37 °C, integrin clustering inhibitor, with: Alexa 488-labelled fibrinogen | reference: no inhibitor, lower means less binding | bound fibrinogen fluorescence | 423 ± 45 MFI |
| CC(C)C[C@H](NC(=O)[C@H](C)NC(=O)[C@@H](N)[C@@H](C)O)C(=O)N1CCC[C@H]1C(=O)N1CCC[C@H]1C(=O)N1CCC[C@H]1C(=O)N1CCC[C@H]1C(=O)N[C@@H](Cc1ccc(O)cc1)C(=O)N[C@@H](CCCNC(=N)N)C(=O)N[C@@H](Cc1c[nH]cn1)C(=O)N[C@@H](CCCNC(=N)N)C(=O)N[C@@H](CC(N)=O)C(=O)O | YAP1 WW1 domain | binding, ITC | – | pH 7.0, 25 °C, WW1 domain | – | TΔS | -11 ± 0.73 kcal/mol |
| COc1ccc(Cl)cc1Nc1nc(-c2sc(NC(=O)c3ccccc3)nc2C)cs1 | CFTR del508-508 | iodide influx, corrector, YFP halide quenching | FRT cells expressing YFP-H148Q/I152L | 16 to 20 h, 37 °C, genistein 50 µM, with: forskolin 20 µM | – | Vmax | 475 µM/s |
| Clc1ccc(SSc2ccc(Cl)cc2)cc1 | tubulin | colchicine binding, [3H]colchicine binding | – | 50 µM, 10 min, 37 °C, with: [3H]colchicine 5.0 µM | – | inhibition | 0 ± 4% |
| IINFEKL | ERAP1 (Homo sapiens, UniProt Q9NZ08, L733R) | substrate | peptide | pH 8.0, 27 °C, mutant L733R, with: L-AMC, peptide activator 100 µM | – | Hill coefficient | 1 |
| IKPAKRMKFKTVCYLLVQLMHCRKMFKA | Calmodulin-1 (Calm1, Rattus norvegicus, UniProt P0DP29, D21A/D57A) | Ca2+ dissociation, stopped-flow quin-2 fluorescence | peptide | 2 µM, pH 7.4, 22 °C, with: Ca2+-calmodulin complex | – | koff1 | 5.17 s⁻¹ and 5.2 s⁻¹ |
| CCCCOc1ccccc1S(=O)(=O)N1CC(c2nc(-c3ccsc3)no2)C1 | KCNT1 | Tl+ flux, inhibitor | HEK293 expressing KCNT1 | 30 µM | – | activity class | inactive |
| CC1(C)CCC(c2ccc(Cl)cc2)=C(CN2CCN(c3ccc(C(=O)NS(=O)(=O)c4ccc(N[C@H](CCN5CCOCC5)CSc5ccccc5)c(S(=O)(=O)C(F)(F)F)c4)cc3)CC2)C1 | T1, miR-21 precursor (Homo sapiens) | DSF | – | NaCl 0.25 mM | – | binding | no binding |
| O=S(=O)(c1cccc2c1OCCC2)N1CC(c2nc(-c3ccc(F)cc3)no2)C1 | KCNT1 | ion current, activator, automated patch clamp | CHO | 30 µM | reference: bepridil 60 µM | efficacy | 100% |
| O=C(NCCc1ccc2c(c1)[C@H]1C[C@@H](N2)C(O)CO1)C(=O)NC1CCCC1 (stereo in doubt) | PPIF (Homo sapiens, UniProt P30405, K175I) | binding, surface plasmon resonance | – | – | reference: fragment Kd over compound Kd | potency gain | > 1000 fold |
| CC(C)C[C@H](NC(=O)[C@@H](NC(=O)[C@@H](N)[C@@H](C)O)C(C)C)C(=O)N1CCC[C@H]1C(=O)N1CCC[C@H]1C(=O)N1CCC[C@H]1C(=O)N1CCC[C@H]1C(=O)N[C@@H](Cc1ccc(O)cc1)C(=O)N[C@@H](C)C(=O)N[C@@H](Cc1c[nH]cn1)C(=O)N[C@@H](CCCNC(=N)N)C(=O)N[C@@H](CC(N)=O)C(=O)O | YAP1 WW2 domain | binding, ITC | – | pH 7.0, 25 °C, WW2 domain | – | ΔH | -8.61 ± 0.07 kcal/mol |
| YSLAAVVLGLVQSLNRQRQKQLLNE | Calmodulin-1 (Calm1, Rattus norvegicus, UniProt P0DP29, D130A/D94A) | Ca2+ dissociation, stopped-flow quin-2 fluorescence | peptide | 2 µM, pH 7.4, 22 °C, with: Ca2+-calmodulin complex | – | koff1 | 3.46 s⁻¹ and 3.5 s⁻¹ |
| OC[C@@H]1[C@@H](O)[C@H](O)[C@@H](O)[C@@H]2O[C@H]12 | GBA1 (Homo sapiens, UniProt P04062, R534H) | enzyme activity, inhibitor | – | pH 5.2 | – | kinact/KI | 1300 M⁻¹ s⁻¹ |
| CSCC[C@H](NC(=O)[C@@H]1CCCN1C(=O)[C@@H](NC(=O)[C@H](Cc1ccc(O)cc1)NC(=O)[C@H](C)NC(=O)[C@@H]1CCCN1C(=O)[C@@H]1CCCN1C(=O)[C@@H]1CCCN1C(=O)[C@H](CO)NC(=O)[C@H](Cc1c[nH]cn1)NC(=O)CN)[C@@H](C)O)C(=O)N[C@@H](CO)C(=O)O | YAP1 WW2 domain | binding, ITC | – | pH 7.0, 25 °C, WW2 domain | – | ΔG | -5.38 ± 0.08 kcal/mol |
| IINFEKE | ERAP1 (Homo sapiens, UniProt Q9NZ08, V737R) | substrate | peptide | pH 8.0, 27 °C, mutant V737R, with: L-AMC, peptide activator 100 µM | – | Hill coefficient | 1.4 |

| Substance | target | assay | test system | setting | scale | quantity | result |
| --- | --- | --- | --- | --- | --- | --- | --- |
| O=C(O)CNC(=O)C(CS)Cc1ccccc1 (stereo not shown) | Neprilysin (Rattus norvegicus, UniProt P07861) | inhibitor, MALDI-TOF MS | isolated rat glomeruli | 10 µM, 60 min, 37 °C, with: ANG-I 1 µM | – | ANG-(1-7) formation | 13.4 ± 0.7 pg/glomerulus |
| NC(=Nc1ccccc1)NC(=O)c1nc(Cl)c(N)nc1N | Degenerin mec-4 (mec-4, Caenorhabditis elegans, UniProt P24612, A713T) | ion current, two-electrode voltage clamp | Xenopus oocytes coexpressing MEC-2 | 30 µM, -85 mV | reference: uninjected oocytes, positive inhibition, negative potentiation | current change | 5.18 µA |
| C/C(=N/N=c1/scc(-c2ccc(Br)cc2)n1-c1c(C)cccc1C)c1ccc2c(c1)OCCO2 | Aldo-keto reductase family 1 member A1 (Bos taurus, UniProt Q3ZCJ2) | enzyme activity, inhibitor, absorbance | – | 1 mM | – | inhibition | 33.4% |
| CC(C)C[C@H](NC(=O)[C@@H](NC(=O)[C@@H](N)[C@@H](C)O)C(C)C)C(=O)N[C@@H](C)C(=O)N1CCC[C@H]1C(=O)N1CCC[C@H]1C(=O)N1CCC[C@H]1C(=O)N[C@@H](Cc1ccc(O)cc1)C(=O)N[C@@H](CCCNC(=N)N)C(=O)N[C@@H](Cc1c[nH]cn1)C(=O)N[C@@H](CCCNC(=N)N)C(=O)N[C@@H](CC(N)=O)C(=O)O | YAP1 WW1 domain | binding, ITC | – | pH 7.0, 25 °C, WW1 domain | – | ΔH | -15.9 ± 0.71 kcal/mol |
| CCOc1ccccc1S(=O)(=O)N1CCC(c2nc(-c3ccc(F)cc3)no2)CC1 | KCNT1 | ion current, activator, automated patch clamp | CHO | 30 µM | reference: bepridil 60 µM | efficacy | 100% |
| IAVVQDWGHHRAT (biotinylated) | Complement factor H (CFH, Homo sapiens, UniProt P08603) | surface plasmon resonance | peptide | concentration not given, with: 100 nM factor H | – | binding | no binding |
| N[C@@H](Cc1cnc[nH]1)C(=O)O | HARS1 (Homo sapiens, UniProt P12081, Y454S) | thermal stability, DSF | – | – | – | ΔTm | 8.1 °C |
| O=C(/C=C/C=C/c1ccc2c(c1)OCO2)N1CCCCC1 | Gabra3/Gabrb2 (Rattus norvegicus, UniProt P20236+P63138) | two-electrode voltage clamp | Xenopus oocytes | 100 µM | – | Hill coefficient of GABA curve | 1.1 ± 0.2 |
| Nc1cc(COc2c(Cl)cc(C[C@H](N)C(=O)O)cc2Cl)c2oc(-c3ccccc3)nc2c1 | SLC7A5 (Homo sapiens, UniProt Q01650) | leucine uptake, inhibitor | HEK293 expressing human LAT1 | 20 µM, 30 min, read 60 min after washout, with: L-[14C]leucine 1 µM | reference: untreated | remaining activity | ~60% |
| GEVIVFGG | Kelch domain-containing protein 2 (UniProt Q9Y2U9) | native mass spectrometry | peptide, 200 mM ammonium acetate | 20 µM Kelch domain-containing protein 2, pH 7 | reference: total Kelch domain-containing protein 2 signal | fraction of protein bound | 3.1% |
| Nc1ncnc2c1ncn2[C@@H]1O[C@H](COP(=O)(O)OP(=O)(O)OP(=O)(O)O)[C@@H](O)[C@H]1O | HARS1 (Homo sapiens, UniProt P12081, S356N) | thermal stability, DSF | – | – | – | ΔTm | 2.25 °C |
| CC[C@H](C)[C@H](NC(=O)[C@@H]1CCCN1C(=O)[C@@H]1CCCN1C(=O)[C@@H]1CCCN1C(=O)[C@@H](NC(=O)[C@H](CC(N)=O)NC(=O)[C@@H](N)Cc1ccccc1)[C@@H](C)CC)C(=O)N[C@@H](Cc1ccc(O)cc1)C(=O)N[C@H](C(=O)N[C@@H](CO)C(=O)N[C@@H](CCCNC(=N)N)C(=O)N[C@@H](C)C(=O)O)[C@@H](C)O | YAP1 WW2 domain | binding, ITC | – | pH 7.0, 25 °C, WW2 domain | – | ΔH | -3.9 ± 0.52 kcal/mol |
| Cc1ccc2c(c1)sc(-c1ccc(N(C)C)cc1)[n+]2C | Transthyretin, fibrils (TTR, Homo sapiens, UniProt P02766) | – | amyloid fibrils | 1 µM | reference: pH 3.0 over pH 7.5 | fluorescence increase | 4.3 fold |
| Brc1ccccc1SSc1ccccc1Br | tubulin | colchicine binding, [3H]colchicine binding | – | 50 µM, 10 min, 37 °C, with: [3H]colchicine 5.0 µM | – | inhibition | 34 ± 4% |
| Cc1cc(C)c2cc(C#N)c(NCCNC(=O)c3cnccn3)nc2c1 | CFTR del508-508 | CFTR correction, corrector, iodide influx rate | FRT expressing YFP-H148Q/I152L | up to 25 µM, 16-20 h, 37 °C, with: forskolin 20 µM, genistein 50 µM | – | Vmax | 174 µM/s |
